Measurements pooled from the literature.
Every numbered part comes from another study and shows a few of its results, in no order. Positions count from the first letter of the parent shown.

Sample 1
Target: Prothrombin, mature alpha-thrombin (F2, Homo sapiens, UniProt P00734)
Method: aptamer microarray, sandwich
Form: DNA with 2'F-ANA
Matrix: in vitro
Tested at: 200 nM
Setting: whole 15-mer aptamer, many near background
With: Cy3 exosite-II aptamer, 400 nM
Direction: higher = stronger binding
Strand: GGTTGGTGTGGTTGG
Under “mean fluorescence intensity”, `2'F-ANA at 2 4 5 6 9 10 11 12 13 14` is recorded as 49.1 a.u.
`2'F-ANA at 1 3 5 6 7 8 12 13 15` — result for “mean fluorescence intensity”: 106 a.u.
Under “mean fluorescence intensity”, `2'F-ANA at 1 5 6 7 8 11` is recorded as 54.5 a.u.
Under “mean fluorescence intensity”, `2'F-ANA at 2 4 5 7 9 12 13` is recorded as 80.3 a.u.
`2'F-ANA at 3 4 5 8 10 11 14 15` — result for “mean fluorescence intensity”: 53.4 a.u.
`2'F-ANA at 1 2 3 6 7 8 10 13`: “mean fluorescence intensity” 60.9 a.u.
Under “mean fluorescence intensity”, `2'F-ANA at 1 2 3 4 5 7 8 11 12 13` is recorded as 87.2 a.u.
`2'F-ANA at 2 4 5 9 11 13 15`: “mean fluorescence intensity” 59.3 a.u.
Under “mean fluorescence intensity”, `2'F-ANA at 2 3 6 10 13 14` is recorded as 263 a.u.
Under “mean fluorescence intensity”, `2'F-ANA at 2 3 5 6 7 9 13 15` is recorded as 59.2 a.u.
Under “mean fluorescence intensity”, `2'F-ANA at 2 4 5 8 9 11 15` is recorded as 82.6 a.u.
Under “mean fluorescence intensity”, `2'F-ANA at 4 5 8 9 10 11 12` is recorded as 73.8 a.u.
Under “mean fluorescence intensity”, `2'F-ANA at 3 4 5 10 11 14` is recorded as 49.5 a.u.
`2'F-ANA at 2 3 4 5 6 8 9 14` — result for “mean fluorescence intensity”: 48.1 a.u.
`2'F-ANA at 1 2 4 7 9 11 13`: “mean fluorescence intensity” 104 a.u.
For `2'F-ANA at 7 9 10 12 14`, “mean fluorescence intensity” read 132 a.u.
`2'F-ANA at 1 4 6 7 8 9 10 11 12 13 14`: “mean fluorescence intensity” 45.9 a.u.
Under “mean fluorescence intensity”, `2'F-ANA at 1 2 5 6 7 9 10 13 15` is recorded as 50.1 a.u.
For `2'F-ANA at 2 4 5 7 8 11 14 15`, “mean fluorescence intensity” read 70.3 a.u.
Under “mean fluorescence intensity”, `2'F-ANA at 1 2 3 5 6 8 9 15` is recorded as 95.9 a.u.
For `2'F-ANA at 1 2 4 8 10 11 12`, “mean fluorescence intensity” read 58.1 a.u.

Sample 2
Target: RING finger protein unkempt homolog, zinc fingers 1-6, SBP tag (UNK, Homo sapiens, UniProt Q9C0B0, residues 30-357)
Chain of UniProt Q9C0B0 (30-357, looked up): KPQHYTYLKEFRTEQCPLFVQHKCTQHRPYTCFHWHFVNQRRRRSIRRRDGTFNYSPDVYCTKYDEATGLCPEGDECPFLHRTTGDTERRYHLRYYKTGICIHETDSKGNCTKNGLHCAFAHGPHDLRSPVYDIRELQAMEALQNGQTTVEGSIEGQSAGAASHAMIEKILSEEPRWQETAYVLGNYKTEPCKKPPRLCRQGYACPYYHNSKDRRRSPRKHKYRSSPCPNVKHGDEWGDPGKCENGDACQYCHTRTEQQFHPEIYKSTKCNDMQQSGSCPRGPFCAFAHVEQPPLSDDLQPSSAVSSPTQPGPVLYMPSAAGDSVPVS
Method: RNA Bind-n-Seq
Form: RNA
Matrix: in vitro
Tested at: 100 nM
Setting: RNA with constant flanks, vertebrate orthologous sites, ends assumed
Relative to: input RNA pool
Direction: higher = stronger binding
With `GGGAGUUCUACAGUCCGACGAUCACACUUAUAUUGUGGCAUAUAGUCAACAUGGAAGUAGACCAGUUCUGCUGAUUUGAAAUUUAGAUUUUUUAAAUUAUGUACUGGGGACAGGUUUUUGUUGCUUUACAUUGCUUCCUAGUUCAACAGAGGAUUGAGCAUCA` the bound/input enrichment was 2.06 ratio.
`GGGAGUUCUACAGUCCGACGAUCAGGGACGCUUUGAUGUAAAAAUUGAAAUUAAGAGCUGAUCACAAGCACAAAUCUUUCCCACUAGCCAUUUAAUAAGUUAAAAAAGAUACAAAAACAAAAACCUACUAGUCUUGAACAAACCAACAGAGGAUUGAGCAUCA` has a bound/input enrichment of 2.94 ratio.
For `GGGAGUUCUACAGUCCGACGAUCCUGUUUUGUGAAACAUGUCUACCCAGAAAAGUAGCAUUCUAUGAAUACUAUUAAACAACUUAGCUAUAUUAUUUUUAACUAUUAAAUUAUAUGUCAAGCAGUUAAAGUGAAUUUCAGAGUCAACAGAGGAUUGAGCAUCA`, the bound/input enrichment was 0.57 ratio.
With `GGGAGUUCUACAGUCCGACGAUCGUGUCUUGGUUUGGGGUAGAGGGGAGGGAGGGGCAGGACUGUGGAAUCUCUAGGGUAUAUUGGUAGAUAAUGGUGCACAGUUAGUUGUAAGUGGGCCUUUAUGUUAUAAACCUCUGGGGGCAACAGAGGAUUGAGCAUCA` the bound/input enrichment was 1.14 ratio.
`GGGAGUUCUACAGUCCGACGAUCUCAUACUGUACGUAGAGAAUCCUUGCCAUUGGUUUCCAUUGUGAGAAUUUCUAGAAUUUAUUUAGAAUUCAGUUUUCUAAUUCAGGCUCAAUGUGUUAGUCAUGUUUAGCUCAUAAUUAACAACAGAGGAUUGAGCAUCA` gave a bound/input enrichment of 0.277 ratio.
`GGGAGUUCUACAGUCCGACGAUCGCAAUACCUGUGCAAAUUUCUCAACACUGAAUGAAGAGUAGUAAUUUUCAUAGUCACAGUUAGGUAGCUUUAGGGCAAUAUUGCCGAGUUUUGAAAAUGUACAAUAUGUAUAAUUUAAAACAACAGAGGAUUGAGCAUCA` has a bound/input enrichment of 1.29 ratio.
The bound/input enrichment of `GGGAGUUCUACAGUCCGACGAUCGUCUAGGUAGGGGUAACCAUUAACUUAUUUUAUAAGGAAAUGAAAUGCUGAAAAUCACGUUAGUGCCAAGUUUAGCUGGAGAACAUGAGCCCCUUUUAGGUGAUUCUCAAGUGGAACUCCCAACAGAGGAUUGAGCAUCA` is reported as 0.395 ratio.
`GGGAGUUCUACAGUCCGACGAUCCUCUUUUCCAGGUUGGAUGUACUGGAAAAGUCAUAGGAAUUGAUCACAUUAAAGAGCUAGUAGAUGACUCAAUAAAUAAUGUCAGGAAGGACGAUCCAACACUUCUGUCUUCAGGGAGAGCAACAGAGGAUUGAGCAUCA` has a bound/input enrichment of 0.786 ratio.

Sample 3
Target: Fragile X messenger ribonucleoprotein 1, C-terminal low-complexity region (Fmr1, Mus musculus, UniProt P35922)
Method: RNA Bind-n-Seq
Form: RNA
Matrix: in vitro
Tested at: 200 nM
Setting: whole 134-nt RNA, ends assumed
With: 150 mM LiCl
Relative to: input library
Direction: higher = stronger binding
Each molecule: 7-deaza-guanosine replaces G
For `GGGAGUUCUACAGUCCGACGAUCUCAAGUCCUGUGCUACACAUCGUAUGUACCGAAUCGGUGGUUUGGUUUUUUUGGAAAGUAUUAUGUUACGCCGUUCGGAUCUGCACUUCCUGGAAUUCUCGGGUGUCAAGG`, the log2 enrichment was -0.724.
`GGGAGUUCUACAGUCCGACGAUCCCUCAAGUCCUGUGCUACACAUCGUAUGUACCGAAUCGGAGGUGGAAAAAGGAAAGUAUUAUGUUACGCCGUUCGGAUCUGCACUUCCAGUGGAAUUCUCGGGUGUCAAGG` gave a log2 enrichment of -0.839.
With `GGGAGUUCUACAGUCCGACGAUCUUCCUCAAGUCCUGUGCUACACAUCGUAUGUACCGAAUCGGCGGGCGGCGGAAAGUAUUAUGUUACGCCGUUCGGAUCUGCACUUCCAGCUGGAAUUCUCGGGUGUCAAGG` the log2 enrichment was 1.03.
With `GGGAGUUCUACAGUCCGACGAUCCUGUGCUACACAUCGUAUGUACCGAAUCGGGGAAAAAAAGGGGAAAAAGGGGAAAAAGGGGAAAGUAUUAUGUUACGCCGUUCGGAUCUGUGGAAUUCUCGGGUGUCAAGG` the log2 enrichment was 1.11.
For `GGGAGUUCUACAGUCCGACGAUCUGUGCUACACAUCGUAUGUACCGAAUCGGGGAAAAAAAGGGGAAAAAGGGGAAAAAAAGGGGAAAGUAUUAUGUUACGCCGUUCGGAUCUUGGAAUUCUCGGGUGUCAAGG`, the log2 enrichment was 1.16.
With `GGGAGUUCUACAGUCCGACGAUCAGUCCUGUGCUACACAUCGUAUGUACCGAAUCAAACCCAAACCCAAAUUUUUUUAAAAAAGUAUUAUGUUACGCCGUUCGGAUCUGCACUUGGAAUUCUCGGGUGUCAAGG` the log2 enrichment was 0.52.
For `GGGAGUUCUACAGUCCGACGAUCUCCUGUGCUACACAUCGUAUGUACCGAAUCGGUUUUUUGGGUUUUUUGGGGUUUUUUGGAAAGUAUUAUGUUACGCCGUUCGGAUCUGCAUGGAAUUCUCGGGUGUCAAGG`, the log2 enrichment was 0.172.
`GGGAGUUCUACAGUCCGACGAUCUGGCCCUGGUGGCAUGCGGGGAGGAAGAGGUGGCCUCAUGGAUCGUGGUGGUCCCGGCGGAAUGUUCAGAGGUGGCCGUGGUGGAGACAGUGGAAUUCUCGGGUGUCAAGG` has a log2 enrichment of -0.252.

Sample 4
Target: Interferon regulatory factor 3, full length, phosphomimetic (IRF3, Homo sapiens, UniProt Q14653, residues 1-427, S386D/S396D/S398D/S402D/T404D/S405D)
Method: protein-binding microarray
Form: double-stranded DNA, one strand shown
Matrix: in vitro
Tested at: 2540 nM top
Setting: 60-bp whole probe
With: salmon DNA 0.4 mg/ml
Relative to: random background probes
Direction: higher = stronger binding
Constant ends, left off below: GCCTAGCAC … GTCTTGATTCGCTTGACGCTGCTG
Construct (chain): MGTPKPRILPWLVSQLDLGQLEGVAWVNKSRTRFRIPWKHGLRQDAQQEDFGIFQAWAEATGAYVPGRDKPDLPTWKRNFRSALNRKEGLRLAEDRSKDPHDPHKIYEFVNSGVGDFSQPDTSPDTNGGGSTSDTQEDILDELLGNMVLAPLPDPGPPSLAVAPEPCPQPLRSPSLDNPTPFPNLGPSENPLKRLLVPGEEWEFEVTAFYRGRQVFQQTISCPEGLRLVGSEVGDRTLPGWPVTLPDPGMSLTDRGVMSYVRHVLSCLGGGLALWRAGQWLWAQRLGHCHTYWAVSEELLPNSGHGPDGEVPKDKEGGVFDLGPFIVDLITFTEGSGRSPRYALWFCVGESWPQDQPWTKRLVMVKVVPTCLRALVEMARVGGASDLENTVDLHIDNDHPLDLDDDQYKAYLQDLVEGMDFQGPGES
For `TCATCTTTCCTCACCATACTGTGCTAG`, “fitted relative affinity” read 2.23 z-score.
`TTAGGCATCGGGACTGGGTTAGTGCTA`: “fitted relative affinity” -1.21 z-score.
For `TTAGGTATCGGTCCCGGTTAGTGCTAG`, “fitted relative affinity” read 2.15 z-score.
For `TTAGCTATCGACTATCGGTTAGTGCTA`, “fitted relative affinity” read -0.136 z-score.
`ATAGGTATCCTTTTCCTTTAGTGCTAG` — result for “fitted relative affinity”: 8.1 z-score.
Under “fitted relative affinity”, `TTAGGACTGAGTATCGATTAGTGCTAG` is recorded as 0.139 z-score.
For `TCTTGTCTGGAGTCTCTGTTCGTGCTA`, “fitted relative affinity” read -0.181 z-score.
For `ATTTGTAAGTACATTAACTCGTGCTAG`, “fitted relative affinity” read 0.519 z-score.
`GACGATCTCAGACGGGAGACGTGCTAG` — result for “fitted relative affinity”: 0.283 z-score.
For `CCTCCTCTAACTTTCCAATTGTGCTAG`, “fitted relative affinity” read 2.72 z-score.
`TTATGTATCGGGTTTCGGTTAGTGCTA`: “fitted relative affinity” 4.13 z-score.
Under “fitted relative affinity”, `TTAGGTCCCCTTCTCCTTTAGTGCTAG` is recorded as 3.51 z-score.
For `TCACCTTTTAATTTTTAACTGTGCTAG`, “fitted relative affinity” read 3.33 z-score.
`GACGGGTTCCTTCTCCTGACGTGCTAG`: “fitted relative affinity” 4.3 z-score.
For `TCAAGAGTAGCTTTCTGACTGTGCTAG`, “fitted relative affinity” read -0.221 z-score.
For `GACGCTTTCGGGTATCGAGACGTGCTA`, “fitted relative affinity” read 1.74 z-score.

Single results of other studies
CCNA1: CCNA1, cyclin fold, Cln2 fusion (human)
P1: CABLES2 docking peptide (human); ICAKRSLCAAFSV; partner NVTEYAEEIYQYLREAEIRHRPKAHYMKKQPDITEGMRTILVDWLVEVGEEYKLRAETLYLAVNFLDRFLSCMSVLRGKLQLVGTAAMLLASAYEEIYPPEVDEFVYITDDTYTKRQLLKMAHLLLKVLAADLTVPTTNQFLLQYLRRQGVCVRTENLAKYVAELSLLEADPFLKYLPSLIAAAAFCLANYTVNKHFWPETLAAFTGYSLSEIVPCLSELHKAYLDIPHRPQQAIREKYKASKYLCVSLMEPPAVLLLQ
`P1 C8A` — result for “normalised enrichment score”: 0.176 (CCNA1; yeast growth competition, sequencing; yeast; weak parent motif; relative to: not given, higher = stronger binding).
With `PPVIIKYIIINRF` the enrichment score was -0.435 (Saccharomyces cerevisiae; peptide binding, yeast competitive growth sequencing; peptide, cyclin E2-Cln2 fusion; library 2; direction not given).
`P1 R5A`: “normalised enrichment score” -0.055 (CCNA1; yeast growth competition, sequencing; yeast; weak parent motif; relative to: not given, higher = stronger binding).
`P1 C2A` — result for “normalised enrichment score”: -0.175 (CCNA1; yeast growth competition, sequencing; yeast; weak parent motif; relative to: not given, higher = stronger binding).

A few entries again (sample 1):
Under “mean fluorescence intensity”, `2'F-ANA at 2 3 5 6 7 9 13 15` is recorded as 59.2 a.u.
`2'F-ANA at 1 2 4 7 9 11 13`: “mean fluorescence intensity” 104 a.u.
Under “mean fluorescence intensity”, `2'F-ANA at 2 3 6 10 13 14` is recorded as 263 a.u.
Under “mean fluorescence intensity”, `2'F-ANA at 2 4 5 6 9 10 11 12 13 14` is recorded as 49.1 a.u.
`2'F-ANA at 1 3 5 6 7 8 12 13 15` — result for “mean fluorescence intensity”: 106 a.u.
Under “mean fluorescence intensity”, `2'F-ANA at 3 4 5 10 11 14` is recorded as 49.5 a.u.
Under “mean fluorescence intensity”, `2'F-ANA at 1 5 6 7 8 11` is recorded as 54.5 a.u.
`2'F-ANA at 2 3 4 5 6 8 9 14` — result for “mean fluorescence intensity”: 48.1 a.u.
